Experimental data collected from several papers.
Each line is one published result; not all experiments were run side by side. “And” joins repeats or separate records; there may be more than shown. ± marks the error that the study gave. Converted amounts (≈) assume the structure as drawn.

Cc1nc(N(C)C(=O)Cc2ccc(-c3ccccn3)cc2)sc1S(N)(=O)=O  IC50 (human alphaherpesvirus 1; live-cell GFP imaging; primary human keratinocytes, K26 GFP): 140 nM
C[C@@H]1OC(=O)[C@H](Cc2ccccc2)[C@H]1O  EC50 (Daphnia magna; immobilisation, semi-static water exposure; 48 h): > 9.1 µg/mL
CC1(C)CC(=O)c2c(C(F)(F)F)nn(-c3ccc(C(N)=O)c(N[C@H]4CC[C@H](O)CC4)c3)c2C1  IC50 (human alphaherpesvirus 1; live-cell GFP imaging; primary human fibroblasts, K26 GFP): 50 nM
NC(=O)c1ncn([C@@H]2O[C@H](CO)[C@@H](O)[C@H]2O)n1  inactivation activity (Pepper mild mottle virus; 500 µg/mL): 56% and 55% and 58%
CCCc1nn(C)c2c(=O)[nH]c(-c3cc(S(=O)(=O)N4CCN(C)CC4)ccc3OCC)nc12  inhibition (Cryptosporidium parvum; parasite growth, immunofluorescence imaging; HCT-8, Iowa; 6 µM): -6.04% and -2.9%
CC(=O)N1CCC(C(=O)N2CCN3C(=O)c4cc(-c5ccccc5)ccc4NC(=O)C3C2)CC1 (stereo not drawn)  median lifespan (Caenorhabditis elegans; N2; 6.25 µM): 17 days
N=C(N)c1ccc(OCc2ccccc2COc2ccc(C(=N)N)cc2)cc1  MIC of compound in combination (Escherichia coli; checkerboard; mcr-1 polymyxin-resistant; concentration not given, 20 h, added: rifampicin): 25 µg/mL
Nc1ccn([C@@H]2O[C@H](CO)[C@@H](O)C2(F)F)c(=O)n1  IC50 (human alphaherpesvirus 1; live-cell GFP imaging; primary human keratinocytes, K26 GFP): 130 nM
FC(F)(F)c1ccc(CNc2ccc(Cc3c[nH]c4ncc(Cl)cc34)cn2)cn1  inhibition (NLRP3 inflammasome (mouse); mouse BMDM; 10 µM): 63.2%
CN[C@H](CC(C)C)C(=O)N[C@H]1C(=O)N[C@@H](CC(N)=O)C(=O)N[C@H]2C(=O)N[C@H]3C(=O)N[C@H](C(=O)N[C@H](C(=O)O)c4cc(O)cc(O)c4-c4cc3ccc4O)[C@H](O)c3ccc(c(Cl)c3)Oc3cc2cc(c3O[C@@H]2O[C@H](CO)[C@@H](O)[C@H](O)[C@H]2O[C@H]2C[C@](C)(N)[C@H](O)[C@H](C)O2)Oc2ccc(cc2Cl)[C@H]1O  ED50 (Staphylococcus haemolyticus; mouse systemic infection; intravenous; survival): 9.96 mg/kg
COC(=O)[C@@H](NCc1cc2ccccc2nc1OCc1ccccc1)C(C)C  growth (Pseudomonas aeruginosa; 2 µg/mL, without pentamidine; reference: control): 96.4%
COc1ccc(NC(=O)N2CCCCN3[C@H](CN(C)C)[C@H](c4ccc(C#Cc5ccccc5)cc4)[C@@H]3C2)cc1  EC50 (Cryptosporidium parvum; parasite growth; Iowa (Sterling)): 8 nM
Cc1cc(OC(C)C)ccc1C(=O)C(C)(C)NC(=O)c1sccc1C  inhibition (Botrytis cinerea; conidial germination; B05.10; 30 µg/mL): 100%
CCCCCCc1ccc(Oc2ccccc2Cl)c(O)c1  CFU reduction (Mycobacterium tuberculosis; mouse, rapid infection model, spleen; oral, 200 mg/kg once daily, co-solvent formulation): 1.47 log10 CFU
CNC(C)C(=O)O (racemic)  relative parasite number (Cryptosporidium parvum; image-based; HCT-8; 1 mM, 24 h post-infection; reference: PBS): 0.99 ± 0.076
CC(=CC(=O)O)CC(=O)O  z-scored log2 fold change (binding, equilibrium dialysis LC-MS; 5 µM, thermostabilized A2AR-BRIL construct; reference: no-protein control, direction not given): 0.292
CC(=O)NC[C@H]1CN(c2ccc(N3CCOCC3)c(F)c2)C(=O)O1  MIC50 (Staphylococcus aureus; MRSA, 10 isolates; pH 5.5): 1 µg/mL (≈ 2.96 µM)
CC[C@@H]1C(=O)N(C)c2cnc(Nc3ccc(C(=O)N[C@H]4CC[C@H](N5CCN(CC6CC6)CC5)CC4)cc3OC)nc2N1C(C)C  inhibition (NLRP3 inflammasome (mouse); mouse BMDM; 10 µM): -87%
CCn1c(=O)c(-c2cc[nH]n2)cc2c(C)nc(N)nc21  viral titre (Coxsackievirus B4; viral replication; HeLa, CVB4-7; concentration not given, 20 h): decreased
CC(=O)N[C@@H](CC(=O)O)C(=O)O  relative parasite number (Cryptosporidium parvum; image-based; HCT-8; 1 mM, 24 h post-infection; reference: PBS): 0.97 ± 0.141
C=CC(=O)N1CC/C(=C\c2ccc(F)c([N+](=O)[O-])c2)C(=O)/C(=C/c2ccc(F)c([N+](=O)[O-])c2)C1  IC50 (human alphaherpesvirus 1; live-cell GFP imaging; primary human keratinocytes, K26 GFP): 4430 nM
O=c1[nH]cnc2c1ncn2[C@@H]1O[C@H](CO)[C@@H](O)[C@H]1O  z-scored log2 fold change (binding, equilibrium dialysis LC-MS; 5 µM, thermostabilized A2AR-BRIL construct; reference: no-protein control, direction not given): 0.152
CO[C@H]1[C@H](O[C@H]([C@H]2O[C@@H](n3ccc(=O)[nH]c3=O)[C@H](O)[C@@H]2O)[C@H](NCCCNC(=O)[C@@H](NC(=O)[C@@H](NC(=O)N[C@H](C(=O)O)C(C)C)[C@@H]2CCN=C(N)N2)[C@@H](O)C(C)C)C(=O)O)O[C@H](CN)[C@H]1O  MIC50 (Cryptococcus gattii; alamar blue; C17): > 35 µg/mL
COC(=O)[C@H](Cc1ccc(O)cc1)NCc1cc2ccccc2nc1SC  growth (Pseudomonas aeruginosa; 32 µg/mL, added: pentamidine 100 µM; reference: control): 52.1%
CNC(C)C1CCC(N)C(OC2C(N)CC(N)C(OC3OCC(C)(O)C(NC)C3O)C2O)O1 (stereo not drawn)  MIC (Salmonella enterica serovar Derby; broth microdilution; clinical isolate RKI-No 270/14): 1 µg/mL (≈ 2.09 µM)
COC(=O)[C@@H](CCSC)NCc1cc2ccccc2nc1SC  growth (Pseudomonas aeruginosa; 8 µg/mL, without pentamidine; reference: control): 95.7%
N=C(N)c1ccc(OCc2cc(Br)cc(COc3ccc(C(=N)N)cc3)c2)cc1  FICI (Escherichia coli; checkerboard; mcr-2 polymyxin-resistant; unit not given, added: rifampicin; lower = stronger synergy): 0.25
COc1ccc(-c2nc(N3CCOCC3)c3sc(CN(C)c4ncc(C(=O)NO)cn4)cc3n2)cn1  selectivity index (human alphaherpesvirus 1; K26 GFP, 3D skin equivalent, air-liquid; reference: CC50 over IC50): > 250
N=C(N)c1ccc(OCc2ccc(-c3ccccc3)cc2COc2ccc(C(=N)N)cc2)cc1  MIC of compound in combination (Escherichia coli; checkerboard; BW25113; concentration not given, lowest-FICI combination, added: rifampicin): 6.25 µg/mL
CC(C)n1ncc2c(C(=O)NCC3(C)CNC3)cc(C3CC3)nc21  virus titre (Enterovirus D68; time-of-addition; RD, US/MO/14-18947; 3 µM, 3 to 3 h post infection): 300 PFU/mL and 400 PFU/mL
[N-]=[N+]=N[C@]1(CO)O[C@@H](n2ccc(N)nc2=O)[C@@H](F)[C@@H]1O  EC50 (murine hepatitis virus; viral genome copies, RT-qPCR; DBT-9, A59 wild type): 95 nM
CCCCCCc1ccc(Oc2ccccc2C)c(O)c1  CFU reduction (Mycobacterium tuberculosis; mouse, rapid infection model, spleen; 50 mg/kg twice daily, SMEDDS formulation): 0.2 log10 CFU
O=C(Nc1ccc([N+](=O)[O-])cc1Cl)c1cc(Cl)ccc1O  IC50 (human alphaherpesvirus 1; live-cell GFP imaging; primary human fibroblasts, K26 GFP): 370 nM
CN[C@H](CC(C)C)C(=O)N[C@H]1C(=O)N[C@@H](CC(N)=O)C(=O)N[C@H]2C(=O)N[C@H]3C(=O)N[C@H](C(=O)N[C@H](C(=O)O)c4cc(O)cc(O)c4-c4cc3ccc4O)[C@H](O)c3ccc(c(Cl)c3)Oc3cc2cc(c3O[C@@H]2O[C@H](CO)[C@@H](O)[C@H](O)[C@H]2O[C@H]2C[C@](C)(N)[C@H](O)[C@H](C)O2)Oc2ccc(cc2Cl)[C@H]1O  isolates inhibited (coagulase-negative staphylococci; concentration not given, MIC ≤1 µg/mL): 20.8%
O=C(/C=C\n1cnc(-c2cc(C(F)(F)F)cc(C(F)(F)F)c2)n1)NNc1ccccn1  selectivity index (human alphaherpesvirus 1; K26 GFP, 3D skin equivalent, submerged; reference: CC50 over IC50): > 28.6
Nc1nc(-c2ccccc2)nc2[nH]nc(Nc3ccc(C(F)(F)F)cc3)c12  clinical score (coxsackievirus B3; 31-1-93, NMRI mice, CVB3 chronic myocarditis; oral, 100 mg/kg twice daily, day 9, dosed days 3 to 10, score scale 0 to 7; direction not given): 1.3

Excerpt of the above:
CC(=O)NC[C@H]1CN(c2ccc(N3CCOCC3)c(F)c2)C(=O)O1  MIC50 (Staphylococcus aureus; MRSA, 10 isolates; pH 5.5): 1 µg/mL (≈ 2.96 µM)
CC[C@@H]1C(=O)N(C)c2cnc(Nc3ccc(C(=O)N[C@H]4CC[C@H](N5CCN(CC6CC6)CC5)CC4)cc3OC)nc2N1C(C)C  inhibition (NLRP3 inflammasome (mouse); mouse BMDM; 10 µM): -87%
CCn1c(=O)c(-c2cc[nH]n2)cc2c(C)nc(N)nc21  viral titre (Coxsackievirus B4; viral replication; HeLa, CVB4-7; concentration not given, 20 h): decreased
